Published values collected from several papers.
± gives the spread as reported.
Cell line: SK-OV-3

`COc1ccc2cc([C@H](C)C(=O)[O][Pt-2]34([O]C(=O)[C@@H](C)c5ccc6cc(OC)ccc6c5)([NH2+][C@@H]5CCCC[C@H]5[NH2+]3)[O]C(=O)C(=O)[O]4)ccc2c1` gave an IC50 of 11.3 ± 0.8 µM (cell growth, MTT; 48 h).
`Clc1nc2cc3c(cc2cc1-c1nc2ccccc2[nH]1)OCO3` has an IC50 of 41.6 µM (cell growth or viability, MTT; 48 h).
`O=C(Cc1ccc2ccccc2c1)N[C@H](Cc1ccccc1)C(=O)N[C@H](Cc1ccc(O)cc1)C(=O)N[C@H](Cc1ccccc1)C(=O)N[C@H](Cc1ccc(OP(=O)(O)O)cc1)C(=O)O` gave an IC50 of 407 µg/mL (cell growth or viability, MTT).
`C=CCc1ccc(OCc2nnc(SCC(=O)Nc3ccc(Cl)cc3Cl)o2)c(OC)c1` has an IC50 of 70 µM (cell growth or viability, MTT; 72 h).
`COc1ccc2cc([C@H](C)C(=O)[O][Pt]([NH2])([NH2])([Cl])([Cl])[O]C(=O)[C@@H](C)c3ccc4cc(OC)ccc4c3)ccc2c1` gave an IC50 of 0.11 ± 0.02 µM (cell growth, MTT; 72 h).
`CC(C)(C)c1cc2c(O)c(c1)Cc1cc(C(C)(C)C)cc(c1OCC(=O)Nc1cncc3ccccc13)Cc1cc(C(C)(C)C)cc(c1O)Cc1cc(C(C)(C)C)cc(c1OCC(=O)Nc1cncc3ccccc13)COC2` gave an IC50 of 3.5 µM (cell growth or viability, MTT; 72 h).
For `Clc1ccc2[nH]c(-c3cc4ccccc4nc3Cl)nc2c1`, the IC50 was 10.4 µM (cell growth or viability, MTT; 48 h).
`C=CCc1ccc(OCc2nnc(SCC(=O)Nc3cccc(Cl)c3)o2)c(OC)c1` gave an IC50 of 41.1 µM (cell growth or viability, MTT; 72 h).
With `C=CC(=O)N1CCC(Cc2ccc(C(=O)N3CCN(c4nc(-c5cnc(N)nc5C(F)F)nc(N5CCOCC5)n4)CC3)cc2)CC1` the IC50 was 0.054 µM (Akt phosphorylation, inhibitor, in-cell western, item: Akt pSer473; 1 h).
The IC50 of `Fc1ccc2[nH]c(-c3cc4ccccc4nc3Cl)nc2c1` is reported as greater than 100 µM (cell growth or viability, MTT; 48 h).
With `[Cl][Cu][Cl].c1ccc(-c2nnc(-c3ccc4c(c3)OCO4)[nH]2)nc1` the IC50 was 4.04 µM (cell growth or viability, MTT; 24 h).
`Cc1ccc2nc(Cl)c(-c3nc4ccccc4[nH]3)cc2c1` has an IC50 of greater than 100 µM (cell growth or viability, MTT; 48 h).
`Oc1ccc(Br)cc1C=NNC(=S)Nc1ccccc1` gave an IC50 of 0.9 µM (cell growth or viability, MTT; 72 h).
The IC50 of `C=CCc1ccc(OCc2nnc(SCC(=O)Nc3ccccc3C(=O)OC)o2)c(OC)c1` is reported as 8.74 µM (cell growth or viability, MTT; 72 h).
For `Cc1cc2nc(-c3cc4ccccc4nc3Cl)[nH]c2cc1C`, the IC50 was 9.4 µM (cell growth or viability, MTT; 48 h).
The IC50 of `CC(C)(C)c1cc2c(O)c(c1)Cc1cc(C(C)(C)C)cc(c1OCC(=O)NCc1ccncc1)Cc1cc(C(C)(C)C)cc(c1O)Cc1cc(C(C)(C)C)cc(c1OCC(=O)NCc1ccncc1)COC2` is reported as 3.8 µM (cell growth or viability, MTT; 72 h).
With `O=[N+]([O-])[O-].O=[N+]([O-])[O-].[Cu+2].[Cu+2].c1ccc(-c2nc(-c3ccc4c(c3)OCO4)n[n-]2)nc1.c1ccc(-c2nc(-c3ccc4c(c3)OCO4)n[n-]2)nc1` the IC50 was 3.81 µM (cell growth or viability, MTT; 24 h).
With `Clc1cc2nc(-c3cc4ccccc4nc3Cl)[nH]c2cc1Cl` the IC50 was 21.4 µM (cell growth or viability, MTT; 48 h).
For `COc1ccc(-c2nnc(-c3ccccn3)[nH]2)cc1OC`, the IC50 was greater than 100 µM (cell growth or viability, MTT; 24 h).
The IC50 of `C=CCc1ccc(OCc2nnc(SCC(=O)Nc3ccc(Br)cc3)o2)c(OC)c1` is reported as 14.1 µM (cell growth or viability, MTT; 72 h).

For quick reference, copied from above:
For `COc1ccc(-c2nnc(-c3ccccn3)[nH]2)cc1OC`, the IC50 was greater than 100 µM (cell growth or viability, MTT; 24 h).
The IC50 of `C=CCc1ccc(OCc2nnc(SCC(=O)Nc3ccc(Br)cc3)o2)c(OC)c1` is reported as 14.1 µM (cell growth or viability, MTT; 72 h).
